Assay results from different studies.
Lines come from different studies, so protocols differ. Values joined by “and” are separate records of one study, mostly repeats; a detail may differ. Numbers after ± are the reported error.
CASP1: Caspase-1 (CASP1, Homo sapiens, UniProt P29466)
Rhomboid protease AarA: Rhomboid protease AarA (Providencia stuartii, UniProt P46116)
T1: ssRNA, hairpin with 1x1 G/G internal loops (Homo sapiens); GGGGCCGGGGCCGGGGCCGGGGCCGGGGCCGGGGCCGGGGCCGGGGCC

CN(Cc1ccc(/C=C/C(=O)NO)cc1)CC12CC3CC(CC(C3)C1)C2
inhibition (human A2A receptor; agonist radioligand binding; 0.05 µM): 16%

O=C(N1CCCC1)n1cc(-c2ccc(-c3ccccc3)cc2)nn1
SILAC activity ratio (Phospholipase DDHD1 (Ddhd1, Mus musculus, UniProt Q80YA3); probe labelling, inhibitor, competitive ABPP-SILAC, item: Ddhd1; mouse T cells; concentration not given, 4 h, single peptide; baseline: treated over DMSO cells, lower = stronger inhibition): 1.65 and 1.38 and 1.32 and 1.42

CCCCCCOc1ccc(C(=O)OCCN2CC=CCC2)cc1
basal binding (CHRM2 (Homo sapiens, UniProt P08172); membranes; 100 µM, 15 h, no carbachol; baseline: control): 0.83 ± 0.06 fold

CCCCCC=CC=C1C(=O)C=CC1CC=CCCCC(=O)O (centres unmarked)
isoTOP-ABPP competition ratio (ADP-ribose glycohydrolase MACROD1 (Homo sapiens, UniProt Q9BQ69); competitive isoTOP-ABPP; Ramos soluble proteome; 100 µM, 60 min, together with: iodoacetamide probe; baseline: DMSO over compound-treated, higher = stronger cysteine blockade): 2.9

CC[C@H](C)[C@H](NC(=O)CNC(=O)CNC(=O)CNC(=O)CNC(=O)CNC(=O)[C@@H](NC(=O)[C@H](CCSC)NC(=O)[C@H](CC(C)C)NC(=O)[C@H](CC(N)=O)NC(=O)[C@H](CC(C)C)NC(=O)[C@@H](NC(=O)[C@H](COP(=O)(O)O)NC(=O)[C@H](CCC(N)=O)NC(=O)[C@H](CCCNC(=N)N)NC(=O)[C@H](CCCNC(=N)N)NC(=O)[C@H](CCCNC(=N)N)NC(=O)[C@H](C)NC(=O)[C@H](CCC(N)=O)NC(C)=O)C(C)C)[C@@H](C)O)C(=O)N[C@@H](Cc1ccc(O)cc1)C(=O)N[C@@H](CO)C(=O)N[C@@H](CCCNC(=N)N)C(=O)N[C@@H](CCCNC(=N)N)C(=O)N[C@@H](CC(C)C)C(=O)N[C@@H](COP(=O)(O)O)C(=O)N[C@@H](CCC(N)=O)C(=O)N[C@@H](CCC(=O)O)C(=O)N[C@H](C(=O)NCC(=O)N[C@@H](CC(C)C)C(=O)N[C@@H](CCC(=O)O)C(N)=O)[C@@H](C)O
ΔH (14-3-3 protein beta/alpha (Homo sapiens, UniProt P31946); binding, ITC; pH 7.4, 37 °C, together with: CFTR R-domain peptide): -9.8 kcal/mol

COC(=O)c1cc2cc3c(cc2oc1=O)N(CC(=O)NC(Cc1cccc(Cl)c1)C(=O)NCC=CS(=O)(=O)c1ccccc1)CCC3 (centres unmarked)
kinact/Ki (Procathepsin L (CTSL, Homo sapiens, UniProt P07711); inhibitor; together with: Z-Phe-Arg-pNA): 16000 M⁻¹ s⁻¹

CC(=O)N1c2ccc(-c3ccc(CNC(=O)c4cn5cc(-c6cnc(N)nc6)nc(N6CCOCC6)c5n4)cc3)cc2CC[C@@H]1C
remaining binding (Peregrin (BRPF1, Homo sapiens, UniProt P55201); binding, competition with immobilised ligand; 10 µM): 86%

CCCNC(=O)c1ccc2c(c1)CC(=O)N2Cc1cccc(F)c1
kon (Heat shock protein HSP 90-alpha, N-terminal domain (HSP90AA1, Homo sapiens, UniProt P07900); SPR, two-state model; N-terminal domain): 1710 ± 1980 M⁻¹ s⁻¹

CC(C)(O)c1ccn2c(-c3ccc(F)c(-c4ccc(F)cc4C#N)c3)cnc2c1F
time to peak increase (GABRA1 (Homo sapiens, UniProt P14867, D219N); total protein level, Western blot; HEK-293T stably expressing GABAA receptors; 5 µM, single dose, together with: hispidulin 10 µM): 12 to 24 h

C[C@@H](Nc1nc(N[C@H](C)C(F)(F)F)nc(-c2cccc(Cl)n2)n1)C(F)(F)F
maximal inhibition (Isocitrate dehydrogenase [NADP] cytoplasmic, with wild-type IDH1 (IDH1, Homo sapiens, UniProt O75874, R132H); enzyme activity; 1 h preincubation, wild type, forward reaction): 73.5 ± 2.4%

O=C1c2sc(-c3ccc(N4CCC(F)C4)nc3F)nc2CCN1c1cccnc1 (centres unmarked)
specific binding (TAR DNA-binding protein 43, aggregated (TARDBP, Homo sapiens, UniProt Q13148); radioligand binding; human, FTLD-TDP type B extract; together with: radioligand 4.94 nM): 0.904 nM and 1.17 nM

CC(=O)N[C@H](C(=O)N[C@@H](CCC(=O)O)C(=O)N[C@@H](C)C(=O)N[C@@H](CC(=O)O)C(=O)COC(=O)c1c(C)cccc1C)C(C)C
kinact/KI (CASP1; enzyme activity, inhibitor): 337000 M⁻¹ s⁻¹

COC(=O)CC(NS(=O)(=O)c1ccc(C)cc1)c1ccccc1 (centres unmarked)
IC50 (Rhomboid protease AarA; enzyme activity, inhibitor, fluorogenic peptide substrate): inactive

N#CN1CC[C@H](C(=O)Nc2nc3c(s2)CN(C(=O)Cn2cc(COCCOCCOCCOCCNC(=O)CCCC[C@@H]4SC[C@@H]5NC(=O)N[C@@H]54)nn2)CC3)C1
iBAQ abundance (E3 ubiquitin-protein ligase TRIM33 (Homo sapiens, UniProt Q9UPN9); probe binding, affinity probe, neutravidin pull-down LC-MS/MS; HEK293T, cell lysate; 5 µM, 1 h, single replicate, unit not given; higher = more pulled down): 624000 and 486000 and 324000

CC(C)(C)c1ccc(C2CC(=O)N2S(=O)(=O)c2cccc(Cl)c2)cc1 (centres unmarked)
IC50 (Rhomboid protease AarA; substrate cleavage, inhibitor, gel-based): inactive

O=C(CN1CCCN(C(=O)CN2CCCN(Cc3cccc4cnccc34)CC2)CC1)NCc1ccccc1-n1ccnc1
Kd (T1, ssRNA, hairpin with 1x1 G/G internal loops (Homo sapiens); BLI; read off a plot): > 40 µM

CCN(CC)C(CO)c1cccc2c(C)c(C)oc12 (centres unmarked)
fold change (LPAR1 (Homo sapiens, UniProt Q92633); G-protein dissociation, agonist, NanoBiT; HEK-293T; 1 µM, wild-type receptor; baseline: baseline luminescence): 0.628 and 0.573 and 0.648 and 0.625 and 0.601 and 0.501

CC(=O)N[C@@H](Cc1c[nH]c2ccccc12)C(=O)N[C@@H](CCC(=O)O)C(=O)N[C@@H](Cc1c[nH]cn1)C(=O)N[C@@H](CC(=O)O)C(=O)COC(=O)c1c(C)cccc1C
kinact/KI (CASP1; enzyme activity, inhibitor): 3.92e+06 M⁻¹ s⁻¹

CC(C=CC=C(C)C=CC1=C(C)CCCC1(C)C)=CC=O
plasma membrane localization (Rhodopsin (RHO, Homo sapiens, UniProt P08100, T17M); immunostaining, item: opsin; COS-7 transfected; 10.00 µM, unit not given; baseline: surface over total stained cells): 0.59

C[Si](C)(C)C[C@@H](CN)CC(=O)O
inhibition (nicotinic acetylcholine receptor, rat; binding, radioligand binding; 75 µM, together with: [3H]cytisine): 1%

CC(=O)N[C@@H](CC(=O)O)C(=O)N[C@@H](Cc1ccccc1)C(=O)N[C@H](C(=O)N[C@@H](CC(=O)O)C(=O)COC(=O)c1c(C)cccc1C)C(C)(C)C
kobs/[I] (CASP1; inhibitor; recombinant enzyme): 3600 M⁻¹ s⁻¹

COc1ccc(Cl)cc1NC(=O)C(C)C
IC50 (Rhomboid protease AarA; enzyme activity, inhibitor, fluorogenic peptide substrate): inactive

CC[C@H](C)[C@@H]1NC(=O)[C@H](CC(C)C)NC(=O)[C@H](CCC(=O)O)NC(=O)[C@H](CC(=O)O)NC(=O)[C@H](CCCNC(=N)N)NC(=O)[C@H](Cc2c[nH]c3ccccc23)NC(=O)[C@H](Cc2ccccc2)NC(=O)[C@H](CC(C)C)NC(=O)[C@H](CC(C)C)NC(=O)[C@H](Cc2ccc(O)cc2)NC(=O)CSC[C@@H](C(=O)NCC(=O)N[C@@H](CO)C(=O)N[C@@H](CCC(=O)O)C(=O)N[C@@H](CCCNC(=N)N)C(N)=O)NC(=O)[C@H](CC(C)C)NC(=O)[C@H](CC(C)C)NC1=O
kon (MCL1 (Homo sapiens, UniProt Q07820); binding, SPR; pH 7.4): 3.92e+06 M⁻¹ s⁻¹

OC1CCCCC1N1CCC(c2ccc(Br)cc2)CC1 (racemic)
selectivity ratio (Vesicular acetylcholine transporter (Rattus norvegicus, UniProt Q62666); rat liver (sigma2); baseline: Ki sigma2 over Ki VAChT): 0.048

CC[C@H](C)[C@H](NC(=O)[C@H](CCC(N)=O)NC(=O)[C@H](CO)NC(=O)[C@H](NC(=O)[C@@H](NC(=O)CN)C(C)C)[C@@H](C)CC)C(=O)N[C@@H](CCCNC(=N)N)C(=O)N1CCC[C@H]1C(N)=O
kon (CD36 (Homo sapiens, UniProt P16671); binding, BLI; pH 8.4): 130000 M⁻¹ s⁻¹

C=CC(=O)N1CCc2ccc(-n3c(=O)ccc4cnc5ccc(-c6cnn(C)c6)cc5c43)cc21
remaining binding (Tyrosine-protein kinase ABL1, non-phosphorylated (ABL1, Homo sapiens, UniProt P00519, F317L); KINOMEscan, item: (F317L)-nonphosphorylated; 1 µM; baseline: control): 99%

Some of these lines once more:
C[C@@H](Nc1nc(N[C@H](C)C(F)(F)F)nc(-c2cccc(Cl)n2)n1)C(F)(F)F
maximal inhibition (Isocitrate dehydrogenase [NADP] cytoplasmic, with wild-type IDH1 (IDH1, Homo sapiens, UniProt O75874, R132H); enzyme activity; 1 h preincubation, wild type, forward reaction): 73.5 ± 2.4%

O=C1c2sc(-c3ccc(N4CCC(F)C4)nc3F)nc2CCN1c1cccnc1 (centres unmarked)
specific binding (TAR DNA-binding protein 43, aggregated (TARDBP, Homo sapiens, UniProt Q13148); radioligand binding; human, FTLD-TDP type B extract; together with: radioligand 4.94 nM): 0.904 nM and 1.17 nM

CC(=O)N[C@H](C(=O)N[C@@H](CCC(=O)O)C(=O)N[C@@H](C)C(=O)N[C@@H](CC(=O)O)C(=O)COC(=O)c1c(C)cccc1C)C(C)C
kinact/KI (CASP1; enzyme activity, inhibitor): 337000 M⁻¹ s⁻¹
